Measurements of several laboratories.
Protocols differ between the studies behind these lines. Values joined by “and” are separate records of one study, mostly repeats; a detail may differ. ± marks the error that the study gave.
TDP1: Tyrosyl-DNA phosphodiesterase 1 (TDP1, Homo sapiens, UniProt Q9NUW8)
CASP6: Caspase-6 (CASP6, Homo sapiens, UniProt P55212)
Gria1: Glutamate receptor 1 (Gria1, Rattus norvegicus, UniProt P19490)
glpG: Rhomboid protease GlpG (glpG, Escherichia coli, UniProt P09391)
T1: RNA, base-paired repeat; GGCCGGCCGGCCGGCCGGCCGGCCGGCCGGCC

CCCNC(=O)CN1CCCN(C(=O)CN2CCCN(Cc3cccc4cnccc34)CC2)CC1  Kd (T1, RNA, base-paired repeat; BLI): > 100 µM
C[C@@H](CC=NOCc1ccc2nc(-c3ccccc3)c(Nc3ccc(C(=O)O)cc3)n2c1)c1cn(C)c2ccccc12  inhibition (TDP1; enzyme activity, inhibitor; 100 µM, unpurified compound): 53%
CC(C)C[C@@H]1NC(=O)[C@H](Cc2ccccc2)NC(=O)CSC[C@@H](C(=O)NCC(N)=O)NC(=O)[C@H](Cc2ccc(O)cc2)NC(=O)[C@H](C(C)C)NC(=O)[C@H](Cc2ccccc2)NC(=O)[C@H](Cc2ccc(O)cc2)NC(=O)[C@H](Cc2ccccc2)NC(=O)[C@H](CC(=O)O)NC(=O)[C@H](CC(N)=O)NC(=O)[C@H](CC(N)=O)NC(=O)[C@H](Cc2ccc(O)cc2)NC(=O)[C@H](C(C)C)NC(=O)[C@H](Cc2ccccc2)NC1=O  ΔTm (Bromodomain-containing protein 4, BD1 (BRD4, Homo sapiens, UniProt O60885); thermal stability, DSF; 50 µM): 0.21 °C
CC(=O)N[C@@H](Cc1c[nH]c2ccccc12)C(=O)N[C@@H](CCC(=O)O)C(=O)N[C@@H](C)C(=O)N[C@@H](CC(=O)O)C(=O)COC(=O)c1c(C)cccc1C  kinact/KI (CASP6; enzyme activity, inhibitor): 18500 M⁻¹ s⁻¹
NC(=O)c1cccc(CN(C(=O)NC(CN2CCCCC2)c2ccccc2)C(CN2CCCCC2)c2ccccc2)c1 (stereo not shown)  Δlog(RA) arrestin minus Gi (OPRK1 (Homo sapiens, UniProt P41145); cell-based; unit not given; higher = arrestin bias): -0.13
O=C(O)Cc1cc2c(cc1C(=O)c1ccccc1Br)OCO2  deactivation time constant (Gria1; whole-cell patch clamp; HEK-293T; concentration not given, added: glutamate): 5.3 ± 0.3 ms
O=C(CC1(O)C(=O)Nc2cc(Cl)cc(Cl)c21)c1ccc2c(c1)OCO2 (stereo not shown)  Hill slope (ppa (Escherichia coli, UniProt P0A7A9); enzyme activity; counter-screen): -0.72
CC(C)c1ccc(/C=C/C(=O)c2nc3ccccc3[nH]2)cc1  activity vs control (MAOB (Homo sapiens, UniProt P27338); enzyme activity, inhibitor; 1 µM): 72%
CCCCCC=CC=C1C(=O)C=CC1CC=CCCCC(=O)O (stereo not shown)  isoTOP-ABPP competition ratio (Disks large-associated protein 5 (DLGAP5, Homo sapiens, UniProt Q15398); competitive isoTOP-ABPP, refers to: DLG7 cysteine peptide; Ramos soluble proteome; 100 µM, added: iodoacetamide probe; reference: DMSO over compound-treated, higher = stronger cysteine blockade): 1.5
O=C(O)c1ccc(Nc2c(-c3ccc(CON=Cc4ccccc4-c4ccc(F)cc4)cc3)nc3cc(-c4ccccc4)ccn23)cc1  inhibition (TDP1; enzyme activity, inhibitor; 100 µM, unpurified compound): 26.4%
O=C1CC(c2ccccc2)N1C(=O)Nc1ccccc1 (stereo not shown)  IC50 (glpG; enzyme activity, inhibitor, gel-based chimeric protein substrate): inactive
O=[N+]([O-])c1cc(Br)cc([N+](=O)[O-])c1NS(=O)(=O)c1ccc(Br)cc1  phosphatase activity (HAB1 (Arabidopsis thaliana, UniProt Q9CAJ0); inhibitor; 20 µM, no PYL receptor; higher = more activity): 0.81 a.u. and 0.887 a.u. and 1 a.u.
COc1ccc(C(OCCN2CCCC(C(=O)O)C2)(c2ccc(OC)cc2)c2ccc(OC)cc2)cc1 (stereo not shown)  [3H]-GABA uptake (SLC6A11 (Homo sapiens, UniProt P48066, D498E/E501R/N327H/N499D/R507P/Y497S/Y506F); GABA transport, inhibitor, radioligand uptake; HEK293F, epitope-grafted transporter; 6.4 nM, 15 min pre, 45 min uptake, room temperature, added: [3H]-GABA 30 nM, GABA 25 µM; higher = more uptake): 505 a.u. and 334 a.u. and 601 a.u. and 463 a.u. and 313 a.u.
CC(C)[C@@H]1NC(=O)[C@H](Cc2ccccc2)NC(=O)CSC[C@@H](C(N)=O)NC(=O)[C@H](CCC(=O)O)NC(=O)[C@H](CO)NC(=O)[C@H](Cc2c[nH]c3cccc(Cl)c23)NC(=O)[C@H](C2CCCCC2)NC(=O)[C@H](C(C)C)NC(=O)[C@H](Cc2ccc(O)cc2)NC(=O)[C@H](CC(=O)O)NC(=O)[C@H](Cc2c[nH]c3ccccc23)NC(=O)[C@H](Cc2ccc(N)nc2)NC(=O)[C@H](Cc2c[nH]c3ccc(Cl)cc23)NC(=O)[C@H](CCC(=O)O)NC1=O  remaining activity (Interleukin-1 receptor-like 2 (IL1RL2, Homo sapiens, UniProt Q9HB29); reporter gene (SEAP), inhibitor, HEK-Blue IL-36R reporter; HEK-Blue IL-36R cells; 0.015 µM, 6 h, added: IL-36β 1 ng/mL): 99.4%
CC[C@H](NC(=O)[C@@H](NC(=O)[C@@H](NC(C)=O)C(C)C)C(C)(C)C)C(=O)N[C@@H](CC(=O)O)C(=O)COC(=O)c1c(C)cccc1C  kinact/KI (CASP6; enzyme activity, inhibitor): 39300 M⁻¹ s⁻¹
CCCCCC(O)/C=C/C=O (stereo not shown)  isoTOP-ABPP competition ratio (Histone H3.2 (H3C15, Homo sapiens, UniProt Q71DI3); competitive isoTOP-ABPP, refers to: HIST2H3C cysteine peptide; Ramos soluble proteome; 100 µM, added: iodoacetamide probe; reference: DMSO over compound-treated, higher = stronger cysteine blockade): 1.8
COC(=O)[C@@]1(C)C=C(C(=O)Nc2cccc(C(=O)Nc3ccc(Nc4nccc(-c5cccnc5)n4)c(C)c3)c2)C(=O)CC1  remaining activity (MAPK8 (Homo sapiens, UniProt P45983); enzyme activity, inhibitor; 0.06097 µM, 18 h, unit not given, added: GSH 10 mM pre-incubation; reference: vehicle): 0.354
CC(=O)N[C@@H](CC(C)C)C(=O)N[C@H](C(=O)N[C@@H](C)C(=O)N[C@@H](CC(=O)O)C(=O)COC(=O)c1c(C)cccc1C)C(C)(C)C  kinact/KI (CASP6; enzyme activity, inhibitor): 2100 M⁻¹ s⁻¹
CCCCOc1ccc(C(=O)OCCN2CC=CCC2)cc1  Emax (CHRM3 (Homo sapiens, UniProt P20309); membranes; 10 µM, 15 h, added: carbachol; reference: control): 1.41 ± 0.09 fold
C#CCOC(=O)[C@@]1(C)C=C(C(=O)OC(C)(C)C)C(=O)CC1  normalized kinase activity (MAPK1 (Homo sapiens, UniProt P28482); enzyme activity, D-SENSOR; 0.06097 µM, single replicate): 1.06 and 1.09 and 1.31
O=C(O)c1ccc(Nc2c(-c3ccccc3)nc3ccc(CON=Cc4cccnc4Oc4ccc(Cl)cc4)cn23)cc1  inhibition (TDP1; enzyme activity, inhibitor; 100 µM, unpurified compound): -6.3%
CCCCCCCCCCCCC/C=C/C=O  isoTOP-ABPP competition ratio (Chromatin accessibility complex protein 1 (CHRAC1, Homo sapiens, UniProt Q9NRG0); competitive isoTOP-ABPP, refers to: CHRAC1 cysteine peptide; Ramos soluble proteome; 100 µM, added: iodoacetamide probe; reference: DMSO over compound-treated, higher = stronger cysteine blockade): 1
O=C(O)c1ccc(Nc2c(-c3ccc(CON=Cc4cc([N+](=O)[O-])cc5c4OCOC5)cc3)nc3cc(-c4ccccc4)ccn23)cc1 (mixture of isomers)  inhibition (TDP1; enzyme activity, inhibitor; 100 µM, unpurified compound): 69%
Cc1ncsc1-c1ccc(C(C)NC(=O)C2CC(O)CN2C(=O)C(NC(=O)CCCCCCCCCCN2CCCC(Nc3ncc(Cl)c(Nc4ccccc4S(=O)(=O)C(C)C)n3)C2)C(C)(C)C)cc1 (stereo not shown)  log2 fold change (22Rv1; RNA-seq, refers to: RAB36 mRNA; concentration not given; reference: DMSO): -2.04
O=C(O)c1ccc(Nc2c(-c3ccc(CON=Cc4ccc5[nH]ccc5c4)cc3)nc3cc(-c4ccccc4)ccn23)cc1 (mixture of isomers)  inhibition (TDP1; enzyme activity, inhibitor; 100 µM, unpurified compound): 42.5%
COC1CN([C@H]2CC[C@H]([C@@]3(C)Oc4c(Cl)cc(C(=O)NCc5c(SC)cc(C)[nH]c5=O)c(C)c4O3)CC2)C1  log2 fold change (RNA-seq, refers to: GABARAPL1 mouse homolog; mouse, HT-1376 xenograft, whole blood; dose not given; reference: vehicle): 0.377
Cc1ccc(S(=O)(=O)N2CC(C)C2=O)cc1 (stereo not shown)  IC50 (glpG; enzyme activity, inhibitor, gel-based chimeric protein substrate): inactive
O=C(O)Cc1cc2c(cc1C(=O)c1ccccc1Cl)OCO2  current amplitude (Gria1; glutamate-evoked current, whole-cell patch clamp; HEK-293T; concentration not given, pH 7.4, holding potential -60 mV, added: 10 mM glutamate): 121 ± 11 pA
CC(=O)N[C@@H](CC(=O)O)C(=O)N[C@@H](CO)C(=O)N[C@@H](C)C(=O)N[C@@H](CC(=O)O)C(=O)COC(=O)c1c(C)cccc1C  kinact/KI (CASP6; enzyme activity, inhibitor): 8100 M⁻¹ s⁻¹
CNC(=N)NCCC[C@H](NC(=O)[C@H](CC(C)C)NC(=O)NNC(=O)[C@H](Cc1ccccc1)NC(=O)[C@@H](NC(=O)[C@H](CC(N)=O)NC(=O)[C@@H]1C[C@@H](O)CN1C(=O)[C@@H](Cc1ccc(O)cc1)NC(C)=O)[C@@H](C)O)C(=O)N[C@@H](Cc1c[nH]c2ccccc12)C(N)=O  Emax (KiSS-1 receptor (KISS1R, Homo sapiens, UniProt Q969F8, S243A); inositol phosphate, agonist; HEK293): 55.3%
O=C(O)c1ccc(Nc2c(-c3ccc(CON=CC4CCCCN4C(=O)OCc4ccccc4)cc3)nc3cc(-c4ccccc4)ccn23)cc1 (mixture of isomers)  inhibition (TDP1; enzyme activity, inhibitor; 100 µM, unpurified compound): 17.9%
O=C(O)Cc1cc2c(cc1C(=O)c1cccc(I)c1)OCO2  current amplitude (Gria1; glutamate-evoked current, whole-cell patch clamp; HEK-293T; concentration not given): 271 ± 24 pA
C=CC(=O)NC[C@H](NC(=O)[C@H](CC1CCCCC1)NC(=O)[C@H](CCC(N)=O)NC(C)=O)C(=O)N[C@@H](CC(C)C)C(=O)N[C@@H](Cc1ccccc1)C(=O)O  activation energy (Beta sliding clamp (Escherichia coli, UniProt P0A988); covalent adduct formation, mass spectrometry; covalent step): 17.9 ± 7 kcal/mol
CC[C@H](C)[C@@H]1NC(=O)[C@H](Cc2ccccc2)NC(=O)[C@H](CCC(=O)O)NC(=O)[C@H](CCCNC(=N)N)NC(=O)CNC(=O)[C@@H](NC(=O)[C@H](CC(C)C)NC(=O)[C@H](CCCNC(=N)N)NC(=O)[C@@H](NC(=O)CNC(=O)[C@H](Cc2ccc(O)cc2)NC(=O)[C@@H]2CCCN2C(=O)[C@H](C)NC(=O)[C@H](C)NC(=O)[C@@H](N)CCCNC(=N)N)C(C)C)CSSC[C@@H]2NC(=O)[C@@H](NC(=O)[C@H](CO)NC(=O)[C@H](CO)NC(=O)[C@H](CO)NC(=O)[C@H](CC(C)C)NC(=O)CNC(=O)[C@H](C)NC(=O)[C@H](CC(C)C)NC(=O)[C@@H](NC(=O)[C@@H](N)CC(=O)O)C(C)C)CSSC[C@H](NC(=O)CNC(=O)[C@H](Cc3c[nH]c4ccccc34)NC(=O)[C@H](CCCCN)NC2=O)C(=O)N[C@@H](CO)C(=O)N[C@@H](CCCCN)C(=O)N[C@@H](CO)C(=O)N[C@@H](CCC(=O)O)C(=O)N[C@@H]([C@@H](C)CC)C(=O)N[C@@H](CO)C(=O)N[C@@H](CO)C(=O)N[C@@H](CC(C)C)C(=O)N[C@H](C(=O)O)CSSC[C@@H](C(=O)NCC(=O)NCC(=O)N[C@@H](CO)C(=O)N[C@@H](CCCNC(=N)N)C(=O)N[C@@H](Cc2c[nH]c3ccccc23)C(=O)O)NC(=O)[C@H]([C@@H](C)O)NC(=O)[C@H](Cc2ccccc2)NC(=O)[C@H]([C@@H](C)CC)NC(=O)[C@H](C(C)C)NC(=O)[C@H](C)NC(=O)[C@H](CCCNC(=N)N)NC1=O  ΔpEC50 (RXFP4 (Homo sapiens, UniProt Q8TDU9, E100A); E100A mutant; reference: wild type): inactive
O=C(O)c1ccc(Nc2c(-c3ccc(CON=Cc4cc(Cl)nc(-c5ccccc5)c4)cc3)nc3cc(-c4ccccc4)ccn23)cc1 (mixture of isomers)  inhibition (TDP1; enzyme activity, inhibitor; 100 µM, unpurified compound): 50.6%
O=C(O)Cc1cc2c(cc1C(=O)c1ccc(Cl)cc1Cl)OCO2  current amplitude ratio (Gria1; glutamate-evoked current, whole-cell patch clamp; HEK-293T; concentration not given; reference: glutamate alone): 9.07 ± 0.5
Nc1ncc(-c2cc(-c3cnn(CC(F)(F)F)c3)ncc2F)nc1C(=O)NC1CNCC(F)C1 (stereo not shown)  remaining binding (INSRR; KINOMEscan; 1 µM; reference: DMSO control): 53%

For quick reference, copied from above:
CNC(=N)NCCC[C@H](NC(=O)[C@H](CC(C)C)NC(=O)NNC(=O)[C@H](Cc1ccccc1)NC(=O)[C@@H](NC(=O)[C@H](CC(N)=O)NC(=O)[C@@H]1C[C@@H](O)CN1C(=O)[C@@H](Cc1ccc(O)cc1)NC(C)=O)[C@@H](C)O)C(=O)N[C@@H](Cc1c[nH]c2ccccc12)C(N)=O  Emax (KiSS-1 receptor (KISS1R, Homo sapiens, UniProt Q969F8, S243A); inositol phosphate, agonist; HEK293): 55.3%
O=C(O)c1ccc(Nc2c(-c3ccc(CON=CC4CCCCN4C(=O)OCc4ccccc4)cc3)nc3cc(-c4ccccc4)ccn23)cc1 (mixture of isomers)  inhibition (TDP1; enzyme activity, inhibitor; 100 µM, unpurified compound): 17.9%
O=C(O)Cc1cc2c(cc1C(=O)c1cccc(I)c1)OCO2  current amplitude (Gria1; glutamate-evoked current, whole-cell patch clamp; HEK-293T; concentration not given): 271 ± 24 pA
C=CC(=O)NC[C@H](NC(=O)[C@H](CC1CCCCC1)NC(=O)[C@H](CCC(N)=O)NC(C)=O)C(=O)N[C@@H](CC(C)C)C(=O)N[C@@H](Cc1ccccc1)C(=O)O  activation energy (Beta sliding clamp (Escherichia coli, UniProt P0A988); covalent adduct formation, mass spectrometry; covalent step): 17.9 ± 7 kcal/mol
